Published values from different studies.
Every numbered part comes from another study and shows a few of its results, in no order. Changes are numbered by the printed parent chain.

Set 1 — technique: RNA Bind-n-Seq; form: RNA; matrix: in vitro; concentration: 200 nM; setting: whole 134-nt RNA, ends assumed; added: 150 mM LiCl; relative to: input library; reading: higher = stronger binding; each molecule: 7-deaza-guanosine replaces G
Target: Fragile X messenger ribonucleoprotein 1, C-terminal low-complexity region (Fmr1, Mus musculus, UniProt P35922)
Strand	log2 enrichment
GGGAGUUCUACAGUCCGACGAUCCAAGUCCUGUGCUACACAUCGUAUGUACCGAAUCGGGGUUUGGGGUUUGGUUUGGAAAGUAUUAUGUUACGCCGUUCGGAUCUGCACUUCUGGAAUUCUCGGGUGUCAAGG	-0.97
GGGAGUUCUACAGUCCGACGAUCACCUUGCAGGUGGGCAUCUUUGGGAAGUGGGGCAAGGGGGGGAUAGGGAGGGGGGUAACACUUUGGGAACAGGUGGUCCCAGGUCGUUUCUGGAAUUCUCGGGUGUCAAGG	0.839
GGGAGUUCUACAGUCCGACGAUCGUCCUGUGCUACACAUCGUAUGUACCGAAUCGGGUUUUUUUGGGUUUUUUUGGGUGGGAAAGUAUUAUGUUACGCCGUUCGGAUCUGCACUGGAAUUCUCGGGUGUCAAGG	-1.3
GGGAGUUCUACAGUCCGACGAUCACCAUGCAGGUGGGCAUCUUUGGGAAGUGGGGCAAGGGGGGGAUAGGGUGGGGGGUAACACUUUGGGAACAGGUGGUCCCAGGUCGUUUCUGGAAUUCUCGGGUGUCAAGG	1.48
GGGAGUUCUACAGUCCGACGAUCUCCUGUGCUACACAUCGUAUGUACCGAAUCGGGGAAAGGGGUUUGGGGUUUUUUUGGGGAAAGUAUUAUGUUACGCCGUUCGGAUCUGCAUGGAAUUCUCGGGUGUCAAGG	-0.815
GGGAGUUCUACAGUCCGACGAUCACCAUGCAGGUGGGCAUCUUUGGGAAGUGAAACAAGGGGGGGAUAGGGAGGGGGGUAACACUUUGGGAACAGGUGGUCCCAGGUCGUUUCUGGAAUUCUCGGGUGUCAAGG	1.27
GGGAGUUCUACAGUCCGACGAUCUAACUUUAGAGGAGGAUCUGAUGGAUAUGGCAGUGGACGUGGAUUUGGGGAUGGCUAUAAUGGGUAUGGAGGAGGACCUUGAGGUGGCAAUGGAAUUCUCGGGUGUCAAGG	0.256
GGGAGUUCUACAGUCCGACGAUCCCUGUGCUACACAUCGUAUGUACCGAAUCGGGGAAAAAAAGGGGUUUGGGGUUUUUGGGGAAAGUAUUAUGUUACGCCGUUCGGAUCUGCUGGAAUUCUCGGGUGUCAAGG	-1.19
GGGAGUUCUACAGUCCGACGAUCCCUCAAGUCCUGUGCUACACAUCGUAUGUACCGAAUCGGUGGAGGUUUUUGGAAAGUAUUAUGUUACGCCGUUCGGAUCUGCACUUCCAGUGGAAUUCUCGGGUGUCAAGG	0.379
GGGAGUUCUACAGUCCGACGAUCUAUUGGACACAGUGCCCCGCUGAACAGCAGCUGUUCCCAGCGCCAGAGGACCCCACAGCCACAGUAGGAGCUUUGCGACCCCUACGCAACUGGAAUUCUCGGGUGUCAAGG	-1.18
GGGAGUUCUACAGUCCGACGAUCACCAUGCAGGUGGGCAUCUUUGGGAAGUGGGGCGAGGGGGGGAUAGGGAGGGGGGUAACACUUUGGGAACAGGUGGUCCCAGGUCGUUUCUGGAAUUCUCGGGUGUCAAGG	1.41

Set 2 — target: CREBRF, bZIP domain (human); technique: DHFR protein complementation; matrix: yeast; relative to: wild-type JUN-FOS pair; reading: higher = stronger binding
Setting: single substitutions, most at no-binding floor
Starting sequence: JUN, bZIP domain (human); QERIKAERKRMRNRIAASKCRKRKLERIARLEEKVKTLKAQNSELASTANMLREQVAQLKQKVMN; partner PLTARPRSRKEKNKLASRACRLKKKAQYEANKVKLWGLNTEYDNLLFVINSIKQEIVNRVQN
Change	binding fitness [natural log]
A46E	-1.22
V35R	-1.54
L45C	-1.53
K34H	-1.39
A46H	-1.37
E44C	-1.55
K34S	-1.57
Q41H	-1.37
R30K	-1.39
A46I	-1.42
V56R	-1.51
A29K	-1.49
Q55T	-1.5
A49Y	-1.47
T48R	-1.38
E33H	-1.39
R53V	-1.56
M51N	-1.5
T37M	-1.36
E54N	-1.45
L31T	-1.51

Set 3 — technique: aptamer microarray, sandwich; form: DNA with 2'F-ANA; matrix: in vitro; concentration: 200 nM; added: Cy3 exosite-II aptamer, 400 nM; reading: higher = stronger binding; strand: GGTTGGTGTGGTTGG
Target: Prothrombin, mature alpha-thrombin (F2, Homo sapiens, UniProt P00734)
Setting: whole 15-mer aptamer, many near background
Modification	mean fluorescence intensity [a.u.]
2'F-ANA at 1 3 4 5 9 11 12 13 15	64
2'F-ANA at 2 4 5 7 8 10 12 13 14	46
2'F-ANA at 5 6 7 9 11 13	52.1
2'F-ANA at 3 6 7 8 13 15	833
2'F-ANA at 2 3 6 7 8 9 12	1180
2'F-ANA at 8 13 14 15	199
2'F-ANA at 2 3 4 5 6 7 8 9 10 12 13 15	51.4
2'F-ANA at 3 4 10 13 15	278
2'F-ANA at 1 2 3 4 6 7 9 12 13	176
2'F-ANA at 3 6 7 8 10 15	647
2'F-ANA at 1 3 5 6 11 14	59.8
2'F-ANA at 3 4 5 9 11 12 13 15	116
2'F-ANA at 2 4 5 14	45.9
2'F-ANA at 1 2 5 6 7 9 10 11 12 14	96.7
2'F-ANA at 3 5 6 9 10 12 13 14	48.7
2'F-ANA at 1 2 4 5 6 8 10 11 13 14 15	75.3
2'F-ANA at 1 3 5 6 7 10 11 12 13	49.4
2'F-ANA at 1 2 4 6 7 11 14 15	47.3
2'F-ANA at 3 4 5 6 7 11 12 14	51
2'F-ANA at 2 3 6 10 15	338

Set 4 — target: CCNE1, cyclin fold, Cln2 fusion (human); technique: yeast growth competition, sequencing; matrix: yeast; setting: weak parent motif; relative to: not given; reading: higher = stronger binding
Starting sequence: WEE1 docking peptide (human); HKTFRKLRLFDTP
Change	normalised enrichment score
H1M	0.339
R5P	-0.0437
F10A	0.739
K6P	0.712
K2V	0.638
F10K	-0.485
T12A	0.708
K2M	-0.0763
F4K	0.387
D11Q	1.77
H1K	0.208
L7P	0.426
P13F	0.579
H1T	0.883
D11T	0.925
T3L	0.906
R8Y	2.28
T3Y	-1.9
F4T	1.28
F4V	0.0319
L9W	0.555
D11L	0.552
L9G	0.8
R5S	0.481
F10C	0.485

Set 5 — technique: DHFR PCA, deep sequencing; matrix: yeast; added: (+)-ABA 0.11 µM; relative to: wild-type fitted maximum; reading: higher = stronger binding
Target: ABI1, truncated, D143A, DHFR fusion (Arabidopsis thaliana)
Setting: methotrexate growth selection, single substitutions
Starting sequence: PYL1, truncated, DHFR fusion (Arabidopsis thaliana); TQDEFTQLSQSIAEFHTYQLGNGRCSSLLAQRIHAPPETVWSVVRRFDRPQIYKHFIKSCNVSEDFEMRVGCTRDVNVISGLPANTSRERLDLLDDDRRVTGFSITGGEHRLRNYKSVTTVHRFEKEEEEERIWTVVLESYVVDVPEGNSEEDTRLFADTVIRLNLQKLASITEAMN
Change	relative binding score
G148D	10.3%
V62C	-0.0294%
F124V	38.9%
T154P	-7.52%
L138Y	-4.89%
E38Q	-2.7%
I79F	25.7%
C60D	-6.21%
L94R	-10.9%
W41S	-4.15%
M176T	16.5%
L164A	14.3%
T1C	34.8%
R155Y	-5.17%
L8K	8.02%

Mixed results
Molecule	target	test	test system	setting	scale	measurement	value
PhoQ, residues 284 288 289 292 302 303 ASTSDA	PhoP, residues 12 14 15 18 19 LHATL (Escherichia coli, UniProt P23836)	Sort-seq, measured: YFP reporter	E. coli	PhoQ-PhoP variant library, added: 10 µM Mg2+	relative to: high Mg2+ state, higher = stronger signaling	fold induction	23.6

For quick reference, copied from above (set 3):
Modification	mean fluorescence intensity [a.u.]
2'F-ANA at 1 3 4 5 9 11 12 13 15	64
2'F-ANA at 2 4 5 7 8 10 12 13 14	46
2'F-ANA at 5 6 7 9 11 13	52.1
2'F-ANA at 3 6 7 8 13 15	833
2'F-ANA at 2 3 6 7 8 9 12	1180
2'F-ANA at 8 13 14 15	199
2'F-ANA at 2 3 4 5 6 7 8 9 10 12 13 15	51.4
2'F-ANA at 3 4 10 13 15	278
2'F-ANA at 1 2 3 4 6 7 9 12 13	176
2'F-ANA at 3 6 7 8 10 15	647
